Experimental data of several laboratories.
Numbered parts are unrelated; each lists some results of a single study.

Set 1
Target: RING finger protein unkempt homolog, zinc fingers 1-6, SBP tag (UNK, Homo sapiens, UniProt Q9C0B0, residues 30-357)
Sequence of UniProt Q9C0B0 (30-357, looked up): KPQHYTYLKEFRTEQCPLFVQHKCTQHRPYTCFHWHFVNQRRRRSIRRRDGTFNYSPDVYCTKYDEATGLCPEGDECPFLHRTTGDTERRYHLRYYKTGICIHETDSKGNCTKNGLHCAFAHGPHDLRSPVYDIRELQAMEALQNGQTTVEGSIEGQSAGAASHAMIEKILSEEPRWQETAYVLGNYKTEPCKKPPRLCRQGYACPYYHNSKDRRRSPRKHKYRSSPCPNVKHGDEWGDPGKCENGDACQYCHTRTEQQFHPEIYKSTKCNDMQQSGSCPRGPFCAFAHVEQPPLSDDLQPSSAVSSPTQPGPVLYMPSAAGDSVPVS
Method: RNA Bind-n-Seq
Form: RNA
Sample: in vitro
Tested at: 100 nM
Setting: RNA with constant flanks, vertebrate orthologous sites, ends assumed
Reference: input RNA pool
Reading: higher = stronger binding
All sequences stand within: GGGAGUUCUACAGUCCGACGAUC … CAACAGAGGAUUGAGCAUCA
Oligonucleotide	bound/input enrichment
UAUAAUUAUGAAAAUCUAAAGGAUUUUUAAUGUUUAAUUUCCCCCAGCAUCUCUAUUAAGACCUCUUUUUUCCAGGCAGAUCAUUCAGAGUGUGCGAGUGUGUGUGCACAUGUUACAAAG	0.591 ratio
CUGGUCUUCCACUUAGGCUCAGCCUCAGAUCUAUAAGAUUUAUGACAAAUGUAUUCUGUCUCAUUAAGUUGAGUUUAUUAUUUUUUUAAUAAGCCUGUAAAUAAAGAUGGCAUCUUCUAC	0.515 ratio
CAUUGUAUUAAUGAAAAUUGCCUUAAUUAUAAACUACACAUAACGAUAACUCGUUUGCACUAACAGAUUCAGUUACUGUCACUAUUAAAUUAUCUGCUUUUCUGAUACCUGAAGCCAAUC	0.714 ratio
CCCCGAUUUUAGAUGUGAUAUCUAGGCUCUCAUUCUAGUUUGUUUUUGUCUUUUCUUGUUUAGAUACCAGUCUUUUAAAUUCUUGCAUUUUAGUAAGAAAGCUACCUUUUUAUGGAUGUU	2.37 ratio
CUUAAUUAGAGAGUAGUAUAUGUUUCAUAAAGAAAAGUCUUUCUAAUUUUGUUUGUCAUAUAGUAUUUUGGAAUUUGUAUAAUGAGGAUGUUUAGAAGCCAUAUAAAUGGCUUUUUUUAA	0.544 ratio
UAAUUUUGAUUAUUUUCAAUCUCUUCUCCCCUUUCCUGAUUUUAAAAGCCCUUUUUUUAGGUAUAUGUAGUAACAUUAGCAAAAAGAUUUAAUUUGGGCAACUUUGAUUCUUAAAACAGA	0.607 ratio
CGUCCUUGUUAAGCACUGCUUUCCAGACCGUGUCUGACUUAGUCAACCUAGAGGAUUUUAUAGUUUCACUCUAAUGAAGUCCUGAUUAACACAGAGCAGCGGAGCAGCGGUCCCUCCCCU	0.53 ratio
UUCAGUCAUGGAGAAAAAGAUAUUAAAAUAGUUUUAUGGCAUUGAUCCUCAUUUAUCAUGUUUACAAAUAUUAGAGUUCUUGUCUACCUACAAGAGGAGUGGAUGCUAAUUACAGAGAAA	0.806 ratio
UACAAUAAUGAAAACCUACAGAAAUUUUAUUUUCAUUUUCCCCUUAGACAUACUUAGACUCUCUGCCCCUACCCCCAGGCAGAUCAUUCUGAGUGUGCGAGUGUGUUGUGUGUGCACAUG	0.525 ratio
UCAGUCCCCUGGGCUGGGACAGAUUUUUUUUAACGUCUUGAAACUUAAAUUCUGUGCUUGUAGGAGACUCUAACGUUUUUGUCUUUUUUUUUUUACACAAAACCACCUCCACCUCUAGUG	0.357 ratio
GUGGGGAUCGGGGUAGGGUGGGAAGAAGAUGUAUGGAUGUUACCGGCAUUUUUAAGUGUUCAGAGUUUUUUGUGUUUCUCUCUCUCUCUCUCUUUCUCGUUUUGUUGUUUCCCUUUAAUU	0.676 ratio

Set 2
Target: Ras GTPase-activating protein-binding protein 1, RRM domain (G3BP1, Homo sapiens, UniProt Q13283)
Sequence of UniProt Q13283 (whole entry, looked up): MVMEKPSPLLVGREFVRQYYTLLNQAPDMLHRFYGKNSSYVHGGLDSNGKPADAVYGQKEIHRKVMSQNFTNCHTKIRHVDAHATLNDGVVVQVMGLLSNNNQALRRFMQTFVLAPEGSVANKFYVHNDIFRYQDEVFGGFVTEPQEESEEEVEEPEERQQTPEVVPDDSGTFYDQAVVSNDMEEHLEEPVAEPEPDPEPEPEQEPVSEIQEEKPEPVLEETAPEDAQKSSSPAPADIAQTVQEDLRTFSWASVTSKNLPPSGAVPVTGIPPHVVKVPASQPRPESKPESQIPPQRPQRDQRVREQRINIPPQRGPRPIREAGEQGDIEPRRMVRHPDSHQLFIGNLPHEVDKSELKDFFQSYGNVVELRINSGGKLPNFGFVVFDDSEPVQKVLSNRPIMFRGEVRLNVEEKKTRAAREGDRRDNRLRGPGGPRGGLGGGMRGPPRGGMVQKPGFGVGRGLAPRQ
Method: RNA Bind-n-Seq
Form: RNA
Sample: in vitro
Tested at: 1 µM
Setting: whole 134-nt RNA, ends assumed
Together with: 150 mM KCl
Reference: input library
Reading: higher = stronger binding
All sequences stand within: GGGAGUUCUACAGUCCGACGAUC … UGGAAUUCUCGGGUGUCAAGG
Oligonucleotide	log2 enrichment
UGGGAGGUGGAUUUUGUUUAUUUUUUUAGCUCAUUUCCAGGGGUGGGAAUUUUUUUUUAAUUUGUGUCAUGAAUAAAGUUGUUUUUGAAA	1.7
ACCAUGCAGGUGGGCAUCUUUGGGAAGUGGGGCAAGGGGGGGAUAGGGAGGGGGGUAACACUUUGGGAACAGGUGGUCCCAGGUGGUUUC	0.81
GUCCUGUGCUACACAUCGUAUGUACCGAAUCGGGUGGGUUUUUUUGGGUUUUUUUGGGAAAGUAUUAUGUUACGCCGUUCGGAUCUGCAC	0.217
GCAGGAAGUAAAAACAAAUGGAAAUGCUUCUGAUAGUGGCAGGGGUGGGGGUUGCUAAGGAAAGGGUGGGAUGGGAGUGGGUAAAGAGUU	0.946
UCCUGUGCUACACAUCGUAUGUACCGAAUCGGGCCCCCCGGGGCCCCCCGGCCCCCCGGGAAAGUAUUAUGUUACGCCGUUCGGAUCUGC	-0.429
CUCAAGUCCUGUGCUACACAUCGUAUGUACCGAAUCGGGAAGGAAGGGGAAGGAAAGUAUUAUGUUACGCCGUUCGGAUCUGCACUUCCA	-0.275
UCCUGUGCUACACAUCGUAUGUACCGAAUCGGAAAAAAAGGAAAAAAAGGUUUUUUUGGAAAGUAUUAUGUUACGCCGUUCGGAUCUGCA	0.00729
CUCAAGUCCUGUGCUACACAUCGUAUGUACCGAAUCGGGGUUGGUUGGUUGGGAAAGUAUUAUGUUACGCCGUUCGGAUCUGCACUUCCA	-0.279
UAACUUUAGAGGAGGAUCUGAUGGAUAUGGCAGUGGACGUGGAUUUGGGGAUGGCUAUAAUGGGUAUGGAGGAGGACCAGGAGGUGGCAA	-0.347
UGGCCCUGGUGGCAUGCGGGGAGGAAGAGGUGGCCUCAUGGAUCGUGGUGGUCCCGGUGGAAUGUUCAGAGGUGGCCGUGGGGGAGACAG	1.87

Set 3
Target: Sal-like protein 4, full length isoform B (SALL4, Homo sapiens, UniProt Q9UJQ4-2, residues 1-616)
Method: universal PBM
Form: double-stranded DNA, one strand shown
Sample: in vitro
Tested at: not given
Setting: 8-mer, flanks averaged, mean of replicates
Reading: higher = stronger binding
Oligonucleotide	E-score
ACATGCCT	-0.00805
CGGCCCCC	-0.289
CCCATTGC	-0.15
AGGCAAAG	0.0464
AGGCCATC	-0.0649
ATTTGCGG	0.162
AATAGGTC	0.112
CCGTCTAC	-0.0839
ACTCAAAG	0.0292
AGATCATC	0.0756
GACTAGCA	-0.13
CATGCGCA	0.0167
AGGCTTCA	-0.145
CGTGGCCA	-0.222
CTTAAGAC	0.0393
CGCATAAA	0.246
AAATGCAA	0.273
CAGAGGAC	-0.144
AGATTGGG	0.121
ACTCCGGC	-0.26
ACCTGTTG	0.0554
GATCTTTA	0.183
CACGGCTG	-0.248
CGATTCAG	-0.166
CAAAGGTC	-0.234

Set 4
Target: Histone acetyltransferase KAT6A, both winged helices, GST fusion (KAT6A, Homo sapiens, UniProt Q92794, residues 1-181)
Method: protein binding microarray
Form: double-stranded DNA, one strand shown
Sample: in vitro
Tested at: not given
Setting: 8-mer, flanks averaged, mean of 2 arrays, mostly near background
Reference: not given
Reading: higher = stronger binding
Target sequence (chain): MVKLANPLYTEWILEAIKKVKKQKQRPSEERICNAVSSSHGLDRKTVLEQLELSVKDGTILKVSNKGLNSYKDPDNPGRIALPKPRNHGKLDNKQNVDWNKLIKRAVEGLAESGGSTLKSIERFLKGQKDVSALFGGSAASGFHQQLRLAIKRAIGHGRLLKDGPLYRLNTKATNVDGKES
Oligonucleotide	E-score
GCCTTACC	-0.0528
AGCCGCTC	0.301
ATGCTTCG	-0.00409
AACCCTAT	-0.124
GGCAACCC	0.0778
AATACAAC	0.0367
ACGTACGG	0.234
CTTCCGTC	0.247
GCGATAGC	0.104
ATGCAAAT	-0.114
AGGCGGCG	0.308
GTCATTGA	-0.113
GACACGCA	0.223
CTCGGACC	0.0704
ATTTCGTG	-0.116
CACTACCC	-0.104
AATAGTCT	-0.148
ATATCTCA	-0.0858
CGTGAATC	0.065
CAAGGTAG	-0.114
AATATCGG	0.106
CTCCAAAA	-0.186
CCAAGAAG	-0.0785
CACCTATC	-0.0992
GGAAACGA	-0.0278

A few entries again (set 2):
Oligonucleotide	log2 enrichment
UCCUGUGCUACACAUCGUAUGUACCGAAUCGGAAAAAAAGGAAAAAAAGGUUUUUUUGGAAAGUAUUAUGUUACGCCGUUCGGAUCUGCA	0.00729
ACCAUGCAGGUGGGCAUCUUUGGGAAGUGGGGCAAGGGGGGGAUAGGGAGGGGGGUAACACUUUGGGAACAGGUGGUCCCAGGUGGUUUC	0.81
UCCUGUGCUACACAUCGUAUGUACCGAAUCGGGCCCCCCGGGGCCCCCCGGCCCCCCGGGAAAGUAUUAUGUUACGCCGUUCGGAUCUGC	-0.429
UGGCCCUGGUGGCAUGCGGGGAGGAAGAGGUGGCCUCAUGGAUCGUGGUGGUCCCGGUGGAAUGUUCAGAGGUGGCCGUGGGGGAGACAG	1.87
UGGGAGGUGGAUUUUGUUUAUUUUUUUAGCUCAUUUCCAGGGGUGGGAAUUUUUUUUUAAUUUGUGUCAUGAAUAAAGUUGUUUUUGAAA	1.7
GUCCUGUGCUACACAUCGUAUGUACCGAAUCGGGUGGGUUUUUUUGGGUUUUUUUGGGAAAGUAUUAUGUUACGCCGUUCGGAUCUGCAC	0.217
UAACUUUAGAGGAGGAUCUGAUGGAUAUGGCAGUGGACGUGGAUUUGGGGAUGGCUAUAAUGGGUAUGGAGGAGGACCAGGAGGUGGCAA	-0.347
CUCAAGUCCUGUGCUACACAUCGUAUGUACCGAAUCGGGGUUGGUUGGUUGGGAAAGUAUUAUGUUACGCCGUUCGGAUCUGCACUUCCA	-0.279
CUCAAGUCCUGUGCUACACAUCGUAUGUACCGAAUCGGGAAGGAAGGGGAAGGAAAGUAUUAUGUUACGCCGUUCGGAUCUGCACUUCCA	-0.275
